Published values from different studies.
Each line is one published result; not all experiments were run side by side.
Organism: Plasmodium falciparum

SMILES = CCCCNc1c2ccc(Cl)cc2nc2ccc(OC)cc12; system = NIH3T3, 3D7; how to read = reference: CC50 over IC50; measurement = selectivity index; value = > 0.75
SMILES = c1ccc2c(NCCNc3ncnc4cc(OCC5CCN(CCNc6ccnc7ccccc67)CC5)ccc34)cccc2c1; system = NF54; setting = concentration not given, 6 h, early ring stage, IC50 concentration; measurement = parasites killed; value = ≤ 90%
SMILES = C[OH+][Cu-2]12[O]C(c3cn(-c4ccccc4)nc3-c3ccccc3)=N[N+]1=C(C)c1c(cc(C)oc1=O)[O]2 (stereo not drawn); system = 3D7; setting = 100 µg/mL, 72 h; measurement = parasitaemia; value = 0%
SMILES = COc1ccc2c(c1)C1CC(C)(N2)c2c(C)nc3ccc(OC)cc3c21 (stereo not drawn); test = ring stage growth; system = INDO; setting = 12 h, early to late ring; measurement = IC50; value = 7.2 µM
SMILES = Clc1ccc(C2=CC(c3ccc[nH]3)=NC2=CNC2CCCCCC2)cc1; test = parasite growth, SYBR Green I fluorescence; system = D6, chloroquine-sensitive; measurement = IC50; value = 0.963 µM
SMILES = Cc1ccc(NCC(=O)Nc2ccc(F)c(Cl)c2)cc1S(=O)(=O)N1CCOCC1; system = stage IV/V gametocytes; setting = 40 µM; measurement = antiplasmodial activity; value = inactive
SMILES = CN(C)c1ncnc2c1c(-c1ccc(Oc3ccccc3)cc1)cn2C1CCCC1; system = FVO; setting = invasion IC50; measurement = schizont rupture; value = no effect
SMILES = C[OH+][Cu-2]12[O]C(c3cn(-c4ccccc4)nc3-c3ccc(C)cc3)=N[N+]1=C(C)c1c(cc(C)oc1=O)[O]2 (stereo not drawn); system = 3D7; setting = 12.5 µg/mL, 72 h; measurement = parasitaemia; value = 0%
SMILES = Cc1ccc(CNC(=O)[C@H](CCc2ccccc2)NC(=O)[C@H](CCc2ccccc2)NC(=O)[C@@H](N)Cc2ccncc2)cc1; system = D10; setting = 72 h; how to read = reference: HFF EC50 over P. falciparum EC50; measurement = selectivity ratio; value = 189
SMILES = COc1cc2nc(N3CCCCC3)nc(NC3CCN(C)CC3)c2cc1OC; test = Western blot; system = 3D7; setting = 5-fold IC50, 12 h; how to read = reference: DMSO; measurement = H3K4me3 level; value = decreased
SMILES = CCN(CC)c1ccc2nc3c4ccccc4/c(=N/c4ccncc4)cc-3oc2c1; system = NF54; setting = 62.5 ng/mL, 24 h, rings, trophozoites, schizonts; measurement = growth inhibition; value = > 99%
SMILES = COc1cc(C)c(-c2ccc3c(c2O)[C@@H](C)N[C@H](C)C3)c2ccc(-c3c(C)c(-c4ccc5c(c4O)[C@@H](C)N[C@H](C)C5)c4cccc(OC)c4c3O)c(O)c12; test = gametocyte viability, luciferase reporter; system = NF54-Pfs16-GFP-Luc, late stage IV/V; setting = 5 µM, 48 h; measurement = inhibition; value = > 70%
